# Measurements collected from several papers.
# Each line is one published result; not all experiments were run side by side. ± marks the error that the study gave.
Structure (SMILES),assay,test system,conditions,Tmax [h]
COc1c(N2C[C@@H]3CCCN[C@@H]3C2)c(F)cc2c(=O)c(C(=O)O)cn(C3CC3)c12,HPLC-MS/MS,"healthy adults, plasma","oral, 400 mg",2.4
CN1CC[C@@H](NC(=O)Nc2ccc(C#N)cc2)C[C@@H]1c1nc2ccccc2[nH]1,,Japanese patients,"oral, 25 mg once daily, cycle 1 day 21, median",4
CN1C(=O)[C@@H](NC(=O)c2nnc(Cc3ccccc3)[nH]2)COc2ccccc21,,"healthy men, plasma","oral, 20 mg once daily, day 14, median",1.5
CC(C)(Sc1ccncc1-c1ccc(C#N)c2ccccc12)C(=O)O,,"male, plasma","oral, 15 mg, moderate renal impairment, fasted",3
CCOc1ccc(Cc2cc([C@@H]3S[C@H](CO)[C@@H](O)[C@H](O)[C@H]3O)c(OC)cc2C)cc1,,"Japanese type 2 diabetes patients, plasma","oral, 5 mg single dose, eGFR ≥90 mL/min/1.73 m^2, median",0.5
CC(=O)Nc1ccc(O)cc1,,"healthy volunteers, both sexes, plasma","oral, 650 mg, day 1",0.78
CO/N=C1\C[C@]2(C[C@@H]3C[C@@H](C/C=C(\C)C[C@@H](C)/C=C/C=C4\CO[C@@H]5[C@H](O)C(C)=C[C@@H](C(=O)O3)[C@]45O)O2)O[C@H](/C(C)=C/C(C)C)[C@H]1C,"HPLC, non-compartmental","Corriedale lambs, parasitized, plasma","oral, 0.2 mg/kg",19 ± 2.16
CC1=C2C[C@H]3[C@@H](CC[C@@H]4C[C@H](NS(C)(=O)=O)CC[C@@]43C)[C@@H]2CC[C@@]2(C1)O[C@@H]1C[C@H](C)CN[C@H]1[C@H]2C,,"patients, plasma","oral, 20 mg single, day -7, cycle 1",6
Nc1ncc(-c2cnn(CCO)c2)c2scc(-c3ccc(NC(=O)Nc4cccc(F)c4)cc3)c12,,"patients, plasma","oral, 320 mg twice weekly, day 15",20 ± 11.3
NS(=O)(=O)c1cc(Cl)c(Cl)c(S(N)(=O)=O)c1,,"healthy volunteers, plasma","oral, 50 mg, single dose, median",2.5
Cc1ccc(Sc2ccccc2N2CCNCC2)c(C)c1,,"healthy men, plasma","oral, 20 mg once daily, fed, day 12",8
N[C@]1(C(=O)O)[C@H]2[C@@H](C[C@@H]1F)[C@@H]2C(=O)O,,"healthy subjects, both sexes, CSF","oral, 10 mg TS-134 single dose, fed, median",8
CC(=O)Nc1ccc(O[C@@H]2O[C@H](C(=O)O)[C@@H](O)[C@H](O)[C@H]2O)cc1,,"healthy volunteers, both sexes, plasma","oral, 650 mg acetaminophen, day 2, together with: favipiravir, acute",2.2
C[C@@H](N)c1cc(Cl)ccc1Cn1c(=S)[nH]c(=O)c2[nH]ccc21,,"healthy Chinese volunteers, plasma","oral, 5 mg once daily, day 10, median",1.02
CC(C)=CCC[C@](C)(O[C@@H]1O[C@H](CO)[C@@H](O)[C@H](O)[C@H]1O)[C@H]1CC[C@]2(C)[C@@H]1[C@H](O)C[C@@H]1[C@@]3(C)CC[C@H](O[C@@H]4O[C@H](CO)[C@@H](O)[C@H](O)[C@H]4O[C@@H]4O[C@H](CO)[C@@H](O)[C@H](O)[C@H]4O)C(C)(C)[C@@H]3CC[C@]12C,LC-MS/MS,"healthy female volunteers, serum","oral, 3 g red ginseng",8.33 ± 7.02
NC(=O)c1cnc2[nH]ccc2c1N[C@@H]1[C@@H]2CC3C[C@H]1C[C@@](O)(C3)C2,,"healthy Caucasian men, plasma","oral, 60 mg, single dose fasted median",1
CCC1=C(C)CN(C(=O)NCCc2ccc(S(=O)(=O)NC(=O)N[C@H]3CC[C@H](C)CC3)cc2)C1=O,,healthy Korean male volunteers,"oral, 4 mg single dose, median",3
C[C@H]1CN(C(=O)CC#N)[C@]12CCN(c1ncnc3[nH]ccc13)C2,,"atopic dermatitis patients, plasma","topical, 5 g of 3% ointment twice daily, day 7 morning, median",4
O=C1CCc2ccc(OCCCCN3CCN(c4cccc(Cl)c4Cl)CC3)cc2N1,,"healthy Japanese men, CYP2D6 EM, plasma","oral, 3 mg aripiprazole single",2.7 ± 1.4
CS(=O)(=O)n1cc2c(n1)CN([C@H]1CO[C@H](c3cc(F)ccc3F)[C@@H](N)C1)C2,,"healthy Japanese men, plasma","oral, 1 mg once weekly, day 1",2
Cc1nc(-c2ccc(OCC(C)C)c(C#N)c2)sc1C(=O)O,,"healthy men, plasma","oral, 80 mg once daily, day 7 or 21, median",1.5
C[C@]12C=CC(=O)C=C1CC[C@@H]1[C@@H]2[C@@H](O)C[C@@]2(C)[C@H]1C[C@H]1O[C@@H](C3CCCCC3)O[C@]12C(=O)CO,,"children with asthma, serum","inhaled, 160 µg ciclesonide, day 7, HFA-MDI without spacer",0.73 ± 0.054
C[C@@H](O)[C@H]1C(=O)N2C(C(=O)O)=C(S[C@@H]3CN[C@H](C(=O)N(C)C)C3)[C@H](C)[C@H]12,microdialysis,"pig (Danish Landrace), cortical bone","iv infusion, 1000 mg over 10 min, together with: vancomycin co-administered",1.57
CC(=O)Nc1cccc(-n2c(=O)n(C3CC3)c(=O)c3c(Nc4ccc(I)cc4F)n(C)c(=O)c(C)c32)c1,,"Japanese patients, plasma","oral, 2 mg once daily, repeat dosing, median, together with: dabrafenib 150 mg twice daily",~1
COc1cc2c(cc1OC)CN(CCc1ccc(NC(=O)c3cc(OC)c(OC)cc3NC(=O)c3cnc4ccccc4c3)cc1)CC2,,"human, plasma","intravenous infusion, 4 mg/kg",1.29
COc1ccc2c3c1O[C@H]1C[C@@H](OC(=O)c4ccccc4)C=C[C@@]31CCN(C)C2,,"healthy elderly men, plasma","intranasal, 44 mg, single dose",0.71
CCCN1CC(c2ccc(S(C)(=O)=O)cc2)=C(c2ccc(C)cc2)C1=O,,"healthy Chinese, pooled groups, plasma","oral, 100 mg, fasting",~2
CO[C@H]1C[C@@H]2CC[C@@H](C)[C@@](O)(O2)C(=O)C(=O)N2CCCC[C@H]2C(=O)O[C@H]([C@H](C)C[C@@H]2CC[C@@H](OP(C)(C)=O)[C@H](OC)C2)CC(=O)[C@H](C)/C=C(\C)[C@@H](O)[C@@H](OC)C(=O)[C@H](C)C[C@H](C)/C=C/C=C/C=C/1C,HPLC-MS/MS,"Japanese patients, whole blood","oral, 20 mg, day 26, cycle 1, median",4
CCC(CC)O[C@@H]1C=C(C(=O)O)C[C@H](N)[C@H]1NC(C)=O,,"healthy Indian subjects, fed, plasma","oral, 75 mg oseltamivir phosphate, reference capsule formulation, Tamiflu",6.22 ± 1.31
CNCc1ccc(-c2[nH]c3cc(F)cc4c3c2CCNC4=O)cc1,noncompartmental analysis,"patients, plasma","oral, 400 mg, day 21, together with: bevacizumab",3 ± 1.3
CC(C)=CCC[C@](C)(O[C@@H]1O[C@H](CO)[C@@H](O)[C@H](O)[C@H]1O)[C@H]1CC[C@]2(C)[C@@H]1[C@H](O)C[C@@H]1[C@@]3(C)CC[C@H](O[C@@H]4O[C@H](CO)[C@@H](O)[C@H](O)[C@H]4O)C(C)(C)[C@@H]3CC[C@]12C,LC-MS/MS,"healthy male volunteers, serum","oral, 3 g fermented red ginseng",10.2 ± 3.58
Cc1ccc(NC(=O)c2ccc(CN3CCN(C)CC3)cc2)cc1Nc1nccc(-c2cncc(-c3oncc3C)c2)n1,,"Parkinson's disease patients, plasma","oral, 100 mg once daily, day 7, 7-day dosing, mean",4.41
CN[C@H](CC(C)C)C(=O)N[C@H]1C(=O)N[C@@H](CC(N)=O)C(=O)N[C@H]2C(=O)N[C@H]3C(=O)N[C@H](C(=O)N[C@H](C(=O)O)c4cc(O)cc(O)c4-c4cc3ccc4O)[C@H](O)c3ccc(c(Cl)c3)Oc3cc2cc(c3O[C@@H]2O[C@H](CO)[C@@H](O)[C@H](O)[C@H]2O[C@H]2C[C@](C)(N)[C@H](O)[C@H](C)O2)Oc2ccc(cc2Cl)[C@H]1O,microdialysis,"pig (Danish Landrace), cancellous bone","iv infusion, 1000 mg over 100 min, together with: meropenem co-administered",3.63
COc1cc(OC)c(/C=C/S(=O)(=O)Cc2ccc(OC)c(NCC(=O)O)c2)c(OC)c1,,"cancer patients, phase I, plasma","oral, 140 mg twice daily, day 21 cycle 1",0.88 ± 0.25
